Published values collected from several papers.
Each line is one published result; not all experiments were run side by side. ± marks the error that the study gave.

With `CO[C@H]1C[C@@H]2CC[C@@H](C)[C@@](O)(O2)C(=O)C(=O)N2CCCC[C@H]2C(=O)O[C@H]([C@H](C)C[C@@H]2CC[C@@H](OC(=O)NCCOCCOCCOCCOCCOCCOCCOCCOCCC(=O)N3CCc4cc(Cn5nc(-c6ccc7oc(N)nc7c6)c6c(N)ncnc65)ccc4C3)[C@H](OC)C2)C[C@@H](O)[C@H](C)/C=C(\C)[C@@H](O)[C@@H](OC)C(=O)[C@H](C)C[C@H](C)/C=C/C=C/C=C/1C` the AUC(0-t) was 392 ng·h/mL (human, plasma; intravenous, 8 mg, cycle 1 day 1, arithmetic mean).
`Cl.[2H]C([2H])([2H])CC(=O)c1cnc(NC(=O)C2CC2)cc1Nc1cccc(-c2ncn(C([2H])([2H])[2H])n2)c1OC` gave an AUC(0-t) of 1830 ng·h/mL (human, fasted, plasma; oral, 25 mg, single dose, liquid formulation).
`CC(C)n1c(Nc2cccnc2)nc2cnc(Nc3ccc(N4CCN(C)CC4)cc3)nc21` gave an AUC(0-t) of 972 ng·h/mL (human, male, plasma; oral, 150 mg, day 15, with: rifampin 600 mg daily).
For `NC[C@@]1(CC(=O)O)[C@@H]2CC[C@H]3C[C@@H]2[C@@H]1C3`, the AUC(0-t) was 6500 ng·h/mL (human, severe renal impairment, plasma; oral, 20 mg single dose, geometric mean).
For `CO[C@@H]1[C@H](OC(=O)N2CC(CCN3CCOCC3)C2)CC[C@]2(CO2)[C@H]1[C@@]1(C)O[C@@H]1CC=C(C)C`, the AUC(0-t) was 6.39 ± 3.06 ng·h/mL (humans, plasma; subcutaneous, 1.8 mg twice weekly, first dose).
The AUC(0-t) of `Cc1cc(-c2nnc(N)nc2-c2ccc(F)cc2)cc(Cl)n1` is reported as 21600 ng·h/mL (human patients, plasma; oral, 150 mg capsule once daily, multiple doses, arithmetic mean).
`CO[C@H]1C[C@@H]2CC[C@@H](C)[C@@](O)(O2)C(=O)C(=O)N2CCCC[C@H]2C(=O)O[C@H]([C@H](C)C[C@@H]2CC[C@@H](OCCO)[C@H](OC)C2)CC(=O)[C@H](C)/C=C(\C)[C@@H](O)[C@@H](OC)C(=O)[C@H](C)C[C@H](C)/C=C/C=C/C=C/1C` gave an AUC(0-t) of 203 ± 83 ng·h/mL (human, plasma; oral, 5 mg, single dosing, with: vorolanib 100 mg).
For `C=CC(=O)N(C)CCOc1c(N)ncnc1-c1cc(F)cc(NC(=O)c2ccc(C3CC3)cc2F)c1C`, the AUC(0-t) was 624 ng·h/mL (human, whole blood; oral, 200 mg, single ascending dose).
`NC1(C(=O)N[C@@H](CCO)c2ccc(Cl)cc2)CCN(c2nc[nH]c3nccc2-3)CC1` has an AUC(0-t) of 5030 ng·h/mL (human patients, plasma; dose not given, cohort 160/400, cycle 0, geometric mean).
`CC(=O)O[C@H]1C(=O)[C@@]2(C)[C@H]([C@H](OC(=O)c3ccccc3)[C@]3(O)C[C@H](OC(=O)[C@H](O)[C@@H](NC(=O)c4ccccc4)c4ccccc4)C(C)=C1C3(C)C)[C@]1(OC(C)=O)CO[C@@H]1C[C@@H]2O` has an AUC(0-t) of 2680 ng·h/mL (noncompartmental analysis; human cancer patients, plasma; intravenous infusion, 60 mg/m^2, cycle 1 day 1, with: daily oral co-medication).
For `CN(C(=O)C(C)(C)c1cc(C(F)(F)F)cc(C(F)(F)F)c1)c1cnc(N2C[C@H]3COCCN3C[C@H]2CO)cc1-c1ccc(F)cc1[14CH3]`, the AUC(0-t) was 19400 ng equiv·h/mL (refers to: total radioactivity; human, plasma; oral, 120 mg).
`CCN(CC)Cc1cc(Nc2ccnc3cc(Cl)ccc23)ccc1O` gave an AUC(0-t) of 105 ng·h/mL (human, both sexes, plasma; oral, dose not given, fixed-dose combination).
`COC(=O)N[C@@H](C)CNc1nccc(-c2cn(C(C)C)nc2-c2cc(Cl)cc(NS(C)(=O)=O)c2F)n1` has an AUC(0-t) of 24500 ng·h/mL (human patients, plasma; oral, 450 mg twice daily, day 1, single dose, geometric mean, with: binimetinib 45 mg once daily).
`C[C@H]1CN(C(=O)CC#N)[C@]12CCN(c1ncnc3[nH]ccc13)C2` has an AUC(0-t) of 55.8 ng·h/mL (healthy human, plasma; oral, 3 mg single, geometric mean).
For `Cn1cncc1[C@@](N)(c1ccc(Cl)cc1)c1ccc2c(c1)c(-c1cccc(Cl)c1)cc(=O)n2C`, the AUC(0-t) was 17100 ng·h/mL (human patients; oral, 300 mg/m2, first dose, cycle 1, initial cohort, median).
`O=C(O)CCC(=O)O.[2H]C([2H])([2H])Oc1cc(C)c2[nH]ccc2c1CN1CC[C@@H](C2CC2)C[C@H]1c1ccc(C(=O)O)cc1` has an AUC(0-t) of 235000 ng·h/mL (LC-MS/MS, geometric mean; human, plasma; 600 mg, single dose, fasting).
`C#C[C@]1(CO)O[C@@H](n2cnc3c(N)nc(F)nc32)C[C@@H]1O` has an AUC(0-t) of 10.1 µM·h (human, plasma; oral, 100 mg, single dose, geometric mean).
The AUC(0-t) of `CCCOc1ccc(NC(=O)CN2CCN(C)CC2)cc1-c1nc(CC)c(CC)c(=O)[nH]1` is reported as 551 ± 81.4 ng·h/mL (human, fasting, plasma; oral, 10 mg, with: placebo).
For `Cc1cc(C)c(CNC(=O)c2cc(Cl)c3c(c2C)O[C@@](C)([C@H]2CC[C@H](N(C)C)CC2)O3)c(=O)[nH]1`, the AUC(0-t) was 917 ng·h/mL (geometric LS mean; healthy male humans, plasma; oral, dose not given, with: fluconazole).
With `CC(C)c1nc(N(C)S(C)(=O)=O)nc(-c2ccc(F)cc2)c1/C=C/[C@@H](O)C[C@@H](O)CC(=O)O` the AUC(0-t) was 33.4 ng·h/mL (healthy human subjects, plasma; oral, 10 mg, geometric mean, with: none).
`CC[C@H](C)[C@@H]([C@@H](CC(=O)N1CCC[C@H]1[C@H](OC)[C@@H](C)C(=O)N[C@@H](Cc1ccccc1)C(=O)NCCCO)OC)N(C)C(=O)[C@@H](NC(=O)[C@H](C(C)C)N(C)C)C(C)C` gave an AUC(0-t) of 2100 ng·h/mL (human patients, plasma; intravenous, 43 mg/m², cycle 1 geometric mean).
With `CCN1CCN(Cc2ccc(Nc3ncc(F)c(-c4cc(F)c5nc6n(c5c4)[C@H](C)CCC6)n3)nc2)CC1` the AUC(0-t) was 6340 ng·h/mL (human, plasma; 200 mg single dose, mean).
`Cn1cc(-c2cn3nccc3c(-c3cnn([C@]4(CC#N)C[C@@H](C#N)C4)c3)n2)cn1` has an AUC(0-t) of 355 ng·h/mL (healthy humans fasted, plasma; 10 mg single dose, geometric mean).
With `CC(C)=CCC/C(C)=C/CC/C(C)=C/CC[C@@](C)(O)CCC1=C(C)C(=O)C(C)=C(C)C1=O` the AUC(0-t) was 11300 ng·h/mL (healthy human, plasma; oral, 400 mg, with: itraconazole 200 mg).
`CN(CC#N)C(=O)C[C@H](Nc1nc2ccccc2[nH]1)c1cccc(C(F)(F)F)c1` has an AUC(0-t) of 6750 ± 1940 ng·h/mL (human; intravenous infusion, 1 mg/kg, 5 mg/mL formulation).
`CC(C)NC(=O)COc1cccc(-c2nc(Nc3ccc4[nH]ncc4c3)c3ccccc3n2)c1` gave an AUC(0-t) of 13700 ng·h/mL (human, male, fed, plasma; oral, 200 mg once daily, day 8, geometric mean, with: raltegravir).
`C=CCn1c(=O)c2cnc(Nc3ccc(N4CCN(C)CC4)cc3)nc2n1-c1cccc(C(C)(C)O)n1` has an AUC(0-t) of 6.13 µM·h (human; oral, 250 mg once daily, cycle 1 day 17, with: durvalumab 1500 mg IV; geometric mean).
`COC(=O)N[C@@H](C)CNc1nccc(-c2cn(C(C)C)nc2-c2cc(Cl)cc(NS(C)(=O)=O)c2F)n1` gave an AUC(0-t) of 3500 ng·h/mL (human, plasma; oral, 50 mg, geometric mean, with: diltiazem 240 mg once daily).
`COc1cc(-c2cnc3cc(OCCN4CCOCC4)ccn23)cc2c1C(=O)N(CC(F)(F)F)CC2` gave an AUC(0-t) of 7660 ng·h/mL (LC-MS; human, plasma; oral, 350 mg, day 5, with: methotrexate 7.5 mg).
`CC(=O)N1CCC(Nc2cc(C(=O)NC[C@H](O)CN3CCc4ccccc4C3)ncn2)CC1` gave an AUC(0-t) of 5190 ng·h/mL (human; oral, 300 mg, geometric mean).
